# Assay results collected from several papers.
# Protocols differ between the studies behind these lines. Numbers after ± are the reported error.
Structure (SMILES),test,system,setting,IC50
O=C(NC1CS(=O)(=O)c2ccccc21)c1ccc2[nH]c3c(c2c1)CCCC3 (centres unmarked),"CoA-CPM signal reduction, CPM fluorescence thiol",cell-free biochemical,"assay interference counter-screen, together with: CoA replacing acetyl-CoA",> 125 µM
CCOC(=O)C1=C(CSC2=NCCS2)NC(=O)NC1c1cccc(F)c1 (centres unmarked),nitric oxide scavenging,,,154 µM
O=C(O)CN(CCN(CC(=O)O)CC(=O)O)CC(=O)O,iron chelation,cell-free,,66.4 ± 1.07 µM
CC(=O)N[C@@H](CC(N)=O)C(=O)N[C@@H](CC(N)=O)C(=O)N[C@@H](CC(C)C)C(=O)N[C@H]1CSSC[C@@H](C(=O)N[C@H](C(N)=O)[C@@H](C)O)NC(=O)[C@H](CCCNC(=N)N)NC(=O)[C@H](Cc2c[nH]cn2)NC(=O)[C@H](C)NC(=O)CNC(=O)[C@H](Cc2c[nH]c3ccccc23)NC(=O)[C@H](CC(=O)O)NC(=O)[C@H](CCC(N)=O)NC(=O)[C@H](Cc2c[nH]c3ccccc23)NC(=O)[C@H](C(C)C)NC1=O,"complement activation, inhibitor, ELISA, refers to: C3b",normal human serum,,0.57 ± 0.05 µM
COc1ccc(Nc2nnc(S)s2)cc1,"CoA-CPM signal reduction, CPM fluorescence thiol",cell-free biochemical,"assay interference counter-screen, together with: CoA replacing acetyl-CoA",54 ± 2 µM
O=C(Cc1ccc(Cl)cc1Cl)NNC(=S)N=Cc1ccccc1[N+](=O)[O-],hydroxyl radical scavenging,,,63.6 ± 1.73 µM
Cc1c(CN2CCN(C(=O)[C@H](C)O)CC2)sc2c(N3CCOCC3)nc(-c3cnc(N)nc3)nc12,Akt phosphorylation,"cancer patients, Neuroendocrine primary tumour, plasma",,0.0075 µg/mL
CC(=O)N[C@@H](CC(N)=O)C(=O)N[C@@H](CC(N)=O)C(=O)N[C@@H](CC(C)C)C(=O)N[C@H]1CSSC[C@@H](C(=O)N[C@H](C(N)=O)[C@@H](C)O)NC(=O)[C@H](CCCNC(=N)N)NC(=O)[C@H](Cc2c[nH]cn2)NC(=O)[C@H](Cc2cccc3ccccc23)NC(=O)CNC(=O)[C@H](Cc2c[nH]c3ccccc23)NC(=O)[C@H](CC(=O)O)NC(=O)[C@H](CCC(N)=O)NC(=O)[C@H](Cc2c[nH]c3ccccc23)NC(=O)[C@H](C(C)C)NC1=O,"complement activation, inhibitor, ELISA, refers to: C3b",normal human serum,,2.75 ± 0.11 µM
O=S1(=O)C=C(Sc2nnc[nH]2)c2ccccc21,"CoA-CPM signal reduction, CPM fluorescence thiol",cell-free biochemical,"assay interference counter-screen, together with: CoA replacing acetyl-CoA",> 125 µM
O=C(Cc1ccc(Cl)cc1Cl)NNC(=S)N=Cc1ccccc1Cl,hydroxyl radical scavenging,,,29.1 ± 2.15 µM
O=S1(=O)C=C(N2CCN(C3CCCCC3)CC2)c2ccccc21,"CoA-CPM signal reduction, CPM fluorescence thiol",cell-free biochemical,"assay interference counter-screen, together with: CoA replacing acetyl-CoA",> 125 µM
CCOC(=O)C1=C(CSC2=NCCS2)NC(=O)NC1c1ccc(F)cc1F (centres unmarked),nitric oxide scavenging,,,113 µM
CC(=O)OC[C@H]1O[C@@H](OC[C@H]2O[C@@H](OC(=O)[C@]34CCC(C)(C)C[C@H]3C3=CC[C@@H]5[C@@]6(C)CC[C@H](O[C@@H]7OC[C@H](O)[C@H](O)[C@H]7O[C@@H]7O[C@H](CO)[C@@H](O)[C@H](O)[C@H]7O)C(C)(C)[C@@H]6CC[C@@]5(C)[C@]3(C)CC4)[C@H](O)[C@@H](O)[C@@H]2O)[C@H](O)[C@@H](O)[C@@H]1O[C@@H]1O[C@@H](C)[C@H](O)[C@@H](O)[C@H]1O,"peroxynitrite scavenging, dihydrorhodamine fluorescence",,,52.8 ± 1.85 µM
CC[C@H](C)[C@H](NC(C)=O)C(=O)N[C@H]1CSSC[C@@H](C(=O)N[C@H](C(N)=O)[C@@H](C)O)NC(=O)[C@H](CCCNC(=N)N)NC(=O)[C@H](Cc2c[nH]cn2)NC(=O)[C@H](Cc2cccc3ccccc23)NC(=O)CNC(=O)[C@H](Cc2c[nH]c3ccccc23)NC(=O)[C@H](CC(=O)O)NC(=O)[C@H](CCC(N)=O)NC(=O)[C@H](Cc2c[nH]c3ccccc23)NC(=O)[C@H](C(C)C)NC1=O,"complement activation, inhibitor, ELISA, refers to: C5b-9",normal human serum,,2.35 ± 0.25 µM
Brc1cccc(/C=N/N=C/c2cccc(Br)c2)c1,nitric oxide scavenging,,antioxidant,873 µM
O=S1(=O)CC(Sc2ccc(Cl)cc2)c2ccccc21 (centres unmarked),"CoA-CPM signal reduction, CPM fluorescence thiol",cell-free biochemical,"assay interference counter-screen, together with: CoA replacing acetyl-CoA",> 125 µM
Fc1ccc(/C=N/N=C/c2ccc(F)cc2)cc1,nitric oxide scavenging,,antioxidant,1830 µM
CCN(CC)c1ccc(/C=N/c2ccc(F)cc2)c(O)c1,"ferric reducing power, FRAP",,,> 400 µM
Cc1cccc(/C=N/N=C/c2cccc(C)c2)c1,nitric oxide scavenging,,antioxidant,198 µM
O=C1O[C@H]([C@@H](O)CO)C(O)=C1O,"nitric oxide radical scavenging, cell-free",,,210 µM
CCOC(=O)C1=C(CSC2=NCCS2)NC(=O)NC1c1ccc(C(C)C)cc1 (centres unmarked),nitric oxide scavenging,,,85.7 µM
O=[N+]([O-])c1cccc(/C=N/N=C/c2cccc([N+](=O)[O-])c2)c1,nitric oxide scavenging,,antioxidant,1450 µM
COc1ccc(C=NC(=S)NNC(=O)Cc2ccc(Cl)cc2Cl)cc1,iron chelation,cell-free,EDTA as standard,30.1 ± 1.01 µM
Cc1ccc(S(=O)(=O)NNC(=O)COC(=O)c2ccccc2Nc2cccc(C(F)(F)F)c2)cc1,"nitric oxide scavenging, Griess",,"30 min, 25 °C, together with: sodium nitroprusside 5 mM",431 ± 16 µM
Oc1ccc(/C=C/c2cc(O)cc(O)c2)cc1,DPPH radical scavenging,,"30 min, 37 °C",59 ± 1.06 µg/mL
C[C@@H]1O[C@@H](O[C@@H]2[C@@H](O)[C@H](OCCc3ccc(O)c(O)c3)O[C@H](CO)[C@H]2OC(=O)/C=C/c2ccc(O)c(O)c2)[C@H](O)[C@H](O)[C@H]1O,ABTS radical scavenging,,,7.86 ± 0.14 µg/mL
CN1CC(Oc2cnc(C#N)cc2-c2ccn3nc(NC(=O)C4CC4)cc3c2)C1,TNF release,human whole blood,together with: LPS,0.87 µM
CCN(CC)c1ccc(/C=N/c2ccc(Cl)cc2)c(O)c1,"ferric reducing power, FRAP",,,> 400 µM
O=C(O)c1cccnc1Nc1cccc(C(F)(F)F)c1,input conductance,"vascular smooth muscle cells, guinea pig, MA arteriole segments in situ",,62 µM
Clc1ccc(/C=N/N=C/c2ccc(Cl)cc2)cc1,nitric oxide scavenging,,antioxidant,799 µM
CC(C)(C)c1ccc(S(=O)(=O)Nc2cccc(Cl)c2)cc1,"CoA-CPM signal reduction, CPM fluorescence thiol",cell-free biochemical,"assay interference counter-screen, together with: CoA replacing acetyl-CoA",> 125 µM
Clc1cccc(/C=N/N=C/c2cccc(Cl)c2)c1,nitric oxide scavenging,,antioxidant,1410 µM
CC[C@H](C)[C@H](NC(=O)[C@H](CO)NC(=O)[C@H](CCCNC(=N)N)NC(C)=O)C(=O)N[C@H]1CSSC[C@@H](C(=O)N[C@H](C(N)=O)[C@@H](C)O)NC(=O)[C@H](CCCNC(=N)N)NC(=O)[C@H](Cc2c[nH]cn2)NC(=O)[C@H](C)NC(=O)CNC(=O)[C@H](Cc2c[nH]c3ccccc23)NC(=O)[C@H](CC(=O)O)NC(=O)[C@H](CCC(N)=O)NC(=O)[C@H](Cc2cccc3ccccc23)NC(=O)[C@H](C(C)C)NC1=O,"complement activation, inhibitor, ELISA, refers to: C3b",normal human serum,,1.31 ± 0.09 µM
COC[C@@H](C)NC1CCC(Nc2cc(-c3cccc(NCC4(C#N)CCOCC4)n3)c(Cl)cn2)CC1 (some centres unmarked),cell viability,patient-derived ovarian cancer organoids,96 h,0.0233 µM
CCOC(=O)C1=C(CSC2=NCCS2)NC(=O)NC1c1ccc(OC)cc1 (centres unmarked),nitric oxide scavenging,,,141 µM
Cc1c(C)c2c(c(C)c1O)CCC(C)(C(=O)O)O2 (centres unmarked),DPPH radical scavenging,cell-free,,5.54 ± 0.03 µg/mL
CC(=O)N[C@@H](CC(N)=O)C(=O)N[C@@H](CCCNC(=N)N)C(=O)N[C@@H](CC(C)C)C(=O)N[C@H]1CSSC[C@@H](C(=O)N[C@H](C(N)=O)[C@@H](C)O)NC(=O)[C@H](CCCNC(=N)N)NC(=O)[C@H](Cc2c[nH]cn2)NC(=O)[C@H](C)NC(=O)CNC(=O)[C@H](Cc2c[nH]c3ccccc23)NC(=O)[C@H](CC(=O)O)NC(=O)[C@H](CCC(N)=O)NC(=O)[C@H](Cc2c[nH]c3ccccc23)NC(=O)[C@H](C(C)C)NC1=O,"complement activation, inhibitor, ELISA, refers to: C5b-9",normal human serum,,0.45 ± 0.04 µM
Clc1ccc(/C=N/N=C/c2ccc(Cl)cc2Cl)c(Cl)c1,"ferric reducing antioxidant power, FRAP",,,2250 µM
CCCCC1OC(=O)c2ccccc21 (centres unmarked),"platelet aggregation, inhibitor",platelets,together with: ADP 10 µmol/L,1340 ± 140 µM
CC[C@H](C)[C@H](NC(=O)[C@H](CCCNC(=N)N)NC(=O)[C@H](CCC(=O)O)NC(C)=O)C(=O)N[C@H]1CSSC[C@@H](C(=O)N[C@H](C(N)=O)[C@@H](C)O)NC(=O)[C@H](CCCNC(=N)N)NC(=O)[C@H](Cc2c[nH]cn2)NC(=O)[C@H](Cc2cccc3ccccc23)NC(=O)CNC(=O)[C@H](Cc2c[nH]c3ccccc23)NC(=O)[C@H](CC(=O)O)NC(=O)[C@H](CCC(N)=O)NC(=O)[C@H](Cc2c[nH]c3ccccc23)NC(=O)[C@H](C(C)C)NC1=O,"complement activation, inhibitor, ELISA, refers to: C5b-9",normal human serum,,1.76 ± 0.11 µM
CCN(CC)c1ccc(/C=N/c2ccccc2F)c(O)c1,"ferric reducing power, FRAP",,,> 400 µM
Cc1c(C)c2c(c(C)c1O)CC[C@@](C)(CCC[C@H](C)CCC[C@H](C)CCCC(C)C)O2,DMPD radical scavenging,,,7.11 µg/mL
CC(=O)N[C@@H](CC(N)=O)C(=O)N[C@@H](CCCNC(=N)N)C(=O)N[C@@H](CC(C)C)C(=O)N[C@H]1CSSC[C@@H](C(=O)N[C@H](C(N)=O)[C@@H](C)O)NC(=O)[C@H](CCCNC(=N)N)NC(=O)[C@H](Cc2c[nH]cn2)NC(=O)[C@H](Cc2cccc3ccccc23)NC(=O)CNC(=O)[C@H](Cc2c[nH]c3ccccc23)NC(=O)[C@H](CC(=O)O)NC(=O)[C@H](CCC(N)=O)NC(=O)[C@H](Cc2cccc3ccccc23)NC(=O)[C@H](C(C)C)NC1=O,"complement activation, inhibitor, ELISA, refers to: C3b",normal human serum,,2.2 ± 0.11 µM
O=C1CC(c2cn(Cc3ccccc3)c3ccccc23)C(=O)N1c1ccc(Br)cc1 (centres unmarked),"CoA-CPM signal reduction, CPM fluorescence thiol",cell-free biochemical,"assay interference counter-screen, together with: CoA replacing acetyl-CoA",> 125 µM
CC(=O)N[C@@H](CC(N)=O)C(=O)N[C@@H](CCCNC(=N)N)C(=O)N[C@@H](CC(C)C)C(=O)N[C@H]1CSSC[C@@H](C(=O)N[C@H](C(N)=O)[C@@H](C)O)NC(=O)[C@H](CCCNC(=N)N)NC(=O)[C@H](Cc2c[nH]cn2)NC(=O)[C@H](Cc2cccc3ccccc23)NC(=O)CNC(=O)[C@H](Cc2c[nH]c3ccccc23)NC(=O)[C@H](CC(=O)O)NC(=O)[C@H](CCC(N)=O)NC(=O)[C@H](Cc2c[nH]c3ccccc23)NC(=O)[C@H](C(C)C)NC1=O,"complement activation, inhibitor, ELISA, refers to: C3b",normal human serum,,1.9 ± 0.1 µM
Brc1ccc(/C=N/N=C/c2ccc(Br)cc2)cc1,"ferric reducing antioxidant power, FRAP",,,> 3000 µM
c1ccc(Nc2nc(-c3ccccc3)ns2)cc1,"CoA-CPM signal reduction, CPM fluorescence thiol",cell-free biochemical,"assay interference counter-screen, together with: CoA replacing acetyl-CoA",> 125 µM

# For quick reference, copied from above:
Structure (SMILES),test,system,setting,IC50
CCN(CC)c1ccc(/C=N/c2ccc(Cl)cc2)c(O)c1,"ferric reducing power, FRAP",,,> 400 µM
Cc1cccc(/C=N/N=C/c2cccc(C)c2)c1,nitric oxide scavenging,,antioxidant,198 µM
O=C(O)CN(CCN(CC(=O)O)CC(=O)O)CC(=O)O,iron chelation,cell-free,,66.4 ± 1.07 µM
